Measurements gathered from unrelated publications.
Numbered parts are unrelated; each lists some results of a single study.

Series 1
Target: Histone acetyltransferase KAT6A, winged helix 1, GST fusion (KAT6A, Homo sapiens, UniProt Q92794, residues 1-85)
Method: protein binding microarray
Molecule type: double-stranded DNA, one strand shown
Matrix: in vitro
Tested at: not given
Notes: 8-mer, flanks averaged, mean of 2 arrays, mostly near background
Baseline: not given
Reading: higher = stronger binding
Endpoint: E-score
Residues (chain): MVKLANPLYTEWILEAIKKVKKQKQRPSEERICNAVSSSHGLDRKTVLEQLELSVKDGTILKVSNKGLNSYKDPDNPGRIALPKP
GCTAGACC: 0.0262
AAACGTAC: -0.116
GTAGATGA: -0.126
AATATCTA: -0.31
GATACTGC: 0.0611
AAGATGAG: -0.239
ACAGTGGT: -0.279
CGGCCGTC: 0.448
AGTTGCTC: -0.191
CGCGCGCA: 0.458
CTGCGAAG: -0.139
CCGTTCCC: 0.228
AAAGCACT: -0.174
CGTCCTCC: 0.178
AGGACGAC: -0.251
TATCACAA: -0.18
GATTGGAC: -0.299
ATATTAAA: 0.105
CACAGGGC: -0.0355
GACGAGTA: -0.0536
TACTTCCA: -0.193
AGGCAAAT: -0.266
TAGGGGAA: -0.218
AGATCGAT: -0.141
CGACGTAG: 0.112

Series 2
Target: RNA binding protein fox-1 homolog 2, RRM domain, GST-SBP tag (RBFOX2, Homo sapiens, UniProt O43251-10, residues 100-194)
Method: RNA Bind-n-Seq
Molecule type: RNA
Matrix: in vitro
Tested at: 365 nM
Notes: natural RNA segment, single round, ends assumed
Baseline: no-protein control
Reading: higher = stronger binding
Endpoint: RBNS enrichment (R)
Shared flanks, not repeated: GGGAGUUCUACAGUCCGACGAUC … UGGAAUUCUCGGGUGCCAA
Target sequence (chain): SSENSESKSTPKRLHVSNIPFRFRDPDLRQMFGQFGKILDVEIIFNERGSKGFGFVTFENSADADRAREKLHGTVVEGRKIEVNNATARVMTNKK
AUAUGCCCAAGCUAUGCCUUGUCCUCUUGUCCUGUUUGCAUUUCACUGGGAGCUUGCACUAUGCAGCUCCAGUUUCCUGCAGUGAUCAGGGUCCUGCAAGCAGUGGGGAA: 0.338
UUGUGCUCUGCUUGGACAGCAGGCCUGGCACUGGGAGGUGGGGGUGAGCCCCUCACAGCCUUGCCCCUCCCCAAGGCUGGCAACCUGCCUCCCAUUGCCCAAGAGAGAGG: 0.653
GGCUAUAGGAUAUAAGCAUUAGGGACCCUGAGGCUUUAAGUGGUUUCUAUUUCUUCUUAGUUAUUAUGUGCCACCUUCUUAGUUAUUAUGUGCCACCUCCCCUAUGAGUG: 0.389
GGAGGCUACUGGAUGUAAGCUGUGCAGACCUGCUUCCCUCAGCAUUAAAUGUCUUCUCUUGAGCUGCAACUCCCAACUGACUCUGUGUAACCAAGGCUAGCUCUUUGUGU: 0.67
GGUUGCUGACCUGACCGUGAGUGCUUCAGUAUCUGGUUUGUGUCAGAACCAGACGCCAACUUUGUACUGCAUUUGGGAUCAUAUCUUUCCCCUUCUCUGUCCCCCAUUCU: 0.219
AAGUAUCAAAAACCAGGUUAGGAGGUGUGCUGUAUGGCUUUUAUCUCAAUAAGUGGCAGCUUACUGGGGAAAAAGAAAUAAGAAAAAGUGUGGCCAAGCAGAAGUGGAUG: 1.24
ACCCUCUUGAUUGGAGCUUUUGUGAUGCAGCUACCAUGAUUCAAAAAAAUUAAAAAUUAAAAAAAAAAAAUCUGCCACUUAUCCAAGUCCACUAGAGGCCACUGUCUUCA: 3.84
GGCCCUAGCCUCUGGCAGAGCCUGUUCCUGGCCAAACUGUGGCUACAGCUGGAGGGUCAGGAACUGUUACCUUCCUUCCCCUUGGCAUUAAUAAAUUUAAGUUAAUCCUU: 0.26
GGGUCCUCAACCUGGGUCUGUGCCCCCAGCUGUGCCCAGCACCACGGGACCUCCACAGUCCAAUGGCAUUGCCUGUGUGUGCUGUCAUGAAGAUACCACGGCUGUUCUGG: 0.323
CCAGAAUAGUCAACAGUGUUCAAAAGAAUUGACUAGUUAUCCCUGAGGCCCUUUCAAACAUGAUCAAAGAUUUCCCAAUGUGAUCUCAUCAUCAUGGAUACUCAAUUUGU: 0.407
UUUGUCUCGGUUGCUAUUCCAAGAACAGAAGGAGGAAGUUGGCCAAUUACAGCGUGUGUGCAUGGAUGUGUGUGGGGGGCGUGCCUCUCAGAAACGCGGCCAGAAGACAA: 2.55
ACGGAGAGCUCCCUUCUGCAGGACUAAGCAGAUGCGUGUCUUUCCCACCCGUGACUGUAAGAAUGCUCUCUGGGAGGACUUCCACCGGGGCAGAGCAGGCUGCCCAGCCG: 1.19

Series 3
Target: Prothrombin, mature alpha-thrombin (F2, Homo sapiens, UniProt P00734)
Method: aptamer microarray, sandwich
Molecule type: DNA with 2'F-ANA
Matrix: in vitro
Tested at: 200 nM
Notes: whole 15-mer aptamer, many near background
Added: Cy3 exosite-II aptamer, 400 nM
Reading: higher = stronger binding
Endpoint: mean fluorescence intensity
Sequence: GGTTGGTGTGGTTGG
2'F-ANA at 1 2 3 4 5 9 13 15: 51.1 a.u.
2'F-ANA at 1 2 3 7 10 11: 64.5 a.u.
2'F-ANA at 1 3 4 5 6 9 11 14: 49.7 a.u.
2'F-ANA at 1 3 4 9 10: 82.8 a.u.
2'F-ANA at 1 3 4 9 10 11 14: 51.6 a.u.
2'F-ANA at 1 3 7 9 13 14: 84.6 a.u.
2'F-ANA at 2 3 4 5 14 15: 54.6 a.u.
2'F-ANA at 2 3 5 6 7 9 10 12 13 14 15: 59.4 a.u.
2'F-ANA at 2 3 4 6 10 12 13 15: 240 a.u.
2'F-ANA at 1 4 5 6 8 10 11 13 14: 48.5 a.u.
2'F-ANA at 1 2 3 4 6 9 10 12 13 14 15: 53.5 a.u.
2'F-ANA at 1 3 5 8 11 12 14 15: 46.8 a.u.
2'F-ANA at 1 5 6 10 12: 46.7 a.u.
2'F-ANA at 1 2 4 6 9 10 14 15: 49.4 a.u.
2'F-ANA at 4 5 7 9 10 12 13: 88.3 a.u.
2'F-ANA at 3 5 7 10 11 13 14 15: 60.4 a.u.
2'F-ANA at 2 3 4 5 7 8 9 11 13 14: 50.8 a.u.
2'F-ANA at 1 2 4 8 9 10 11 12 13 15: 58.4 a.u.

Series 4
Target: Interferon regulatory factor 7, full length, phosphomimetic (IRF7, Homo sapiens, UniProt Q92985, residues 1-503, S101K/S471D/S472D/S475D/S476D/S477D/S483D/S484D/S487D)
Chain of UniProt Q92985 (whole entry, unmodified, looked up): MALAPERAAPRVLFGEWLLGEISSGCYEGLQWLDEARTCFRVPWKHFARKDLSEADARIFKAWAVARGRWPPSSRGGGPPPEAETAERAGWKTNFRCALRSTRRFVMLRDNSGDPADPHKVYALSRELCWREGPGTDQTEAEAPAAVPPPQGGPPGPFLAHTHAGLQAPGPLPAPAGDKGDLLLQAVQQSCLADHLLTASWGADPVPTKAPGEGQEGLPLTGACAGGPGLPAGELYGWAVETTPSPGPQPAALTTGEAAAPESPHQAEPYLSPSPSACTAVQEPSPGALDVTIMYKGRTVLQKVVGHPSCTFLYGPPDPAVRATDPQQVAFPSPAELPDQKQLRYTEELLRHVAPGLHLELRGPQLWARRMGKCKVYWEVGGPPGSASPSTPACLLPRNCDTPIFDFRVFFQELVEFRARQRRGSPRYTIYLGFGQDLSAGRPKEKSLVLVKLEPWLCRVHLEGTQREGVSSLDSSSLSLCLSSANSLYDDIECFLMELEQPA
Method: protein-binding microarray
Molecule type: double-stranded DNA, one strand shown
Matrix: in vitro
Tested at: 250 nM
Notes: 60-bp whole probe
Added: salmon DNA 0.4 mg/ml
Baseline: random background probes
Reading: higher = stronger binding
Endpoint: log fluorescence
Shared flanks, not repeated: GCCTAGCAC … GTCTTGATTCGCTTGACGCTGCTG
TCAAGTGTCAATAATGACACTGTGCTA: -0.296 z-score
GACGATTGCGGGACTGGAGACGTGCTA: -0.743 z-score
TTAGGTCTCCTTATACTTTAGTGCTAG: 0.403 z-score
TTAGATAGCAGACTGGATTAGTGCTAG: -0.401 z-score
TTAGATATCAGTGTCGATTAGTGCTAG: -0.138 z-score
GACGGACCGCTTCTCCTGACGTGCTAG: 0.48 z-score
GACGAATTGAGTTTCGAGACGTGCTAG: 3.71 z-score
TCAAGCCTCAGGCCTCACACTGTGCTA: -0.621 z-score
GACAGTATCCTACTGCTGACGTGCTAG: 0.114 z-score
TCAGGCTTCATGTTGCTCACTGTGCTA: -0.511 z-score
GACGGACTGCTTCTCCGGACGTGCTAG: 0.0599 z-score
TCACGTGACCCTCTCAAACTGTGCTAG: -0.153 z-score
TTAGGTTTGGGACTGGGTTAGTGCTAG: -0.134 z-score
GAAGGTATCGGGTATCGGGACGTGCTA: 0.381 z-score
GACGGTCTCTGTTTCGGGACGTGCTAG: 3.11 z-score
TTAGGTATCGACTATCGGGTAGTGCTA: 0.0917 z-score
TTAGGTCTCGGTTTCGGATAGTGCTAG: 8.86 z-score
TCACCTTTGCCTCTGAGACTGTGCTAG: 0.391 z-score
TTAGATCTCAAACTGGATTAGTGCTAG: 0.206 z-score
TTAGGTTCCTTTTTCCTTTAGTGCTAG: 4.63 z-score
TCATGGTCCTCTCTCTAACTGTGCTAG: -0.157 z-score
TTAGGTTCCGGTTTCGGTTCGTGCTAG: 12.7 z-score
TTCTGAAGCAGAGCCCTGTTGTGCTAG: -0.505 z-score
TTAGGTTTCGACTTTCGATTAGTGCTA: 11.8 z-score
TTCCCAATGGTCTTTCCACTTGTGCTA: 1.23 z-score

Excerpt of the above (series 3):
2'F-ANA at 2 3 4 5 14 15: 54.6 a.u.
2'F-ANA at 2 3 5 6 7 9 10 12 13 14 15: 59.4 a.u.
2'F-ANA at 2 3 4 6 10 12 13 15: 240 a.u.
2'F-ANA at 1 4 5 6 8 10 11 13 14: 48.5 a.u.
2'F-ANA at 1 2 3 4 6 9 10 12 13 14 15: 53.5 a.u.
2'F-ANA at 1 3 5 8 11 12 14 15: 46.8 a.u.
